Measurements collected from several papers.
Parts stem from different laboratories: compare values within a part only.

Set 1 — technique: universal PBM; form: double-stranded DNA, one strand shown; matrix: in vitro; tested at: not given; reading: higher = stronger binding
Target: Sal-like protein 4, full length isoform B (SALL4, Homo sapiens, UniProt Q9UJQ4-2, residues 1-616)
Notes: 8-mer, flanks averaged, mean of replicates
Strand	E-score
CAACGGTG	-0.265
GTATACCA	0.0291
GAACTAAA	0.0675
ATCACTAG	0.0217

Set 2 — technique: protein-binding microarray; form: double-stranded DNA, one strand shown; matrix: in vitro; tested at: 0.8 µM; notes: whole 60-bp probe, no competitor; reading: higher = stronger binding; constant ends, left off below: … GTCTTGATTCGCTTGACGCTGCTG
Target: Centromere-binding protein 1, full length, N-terminal tag (CBF1, Saccharomyces cerevisiae, UniProt P17106, residues 1-351)
Sequence of UniProt P17106 (whole entry, looked up): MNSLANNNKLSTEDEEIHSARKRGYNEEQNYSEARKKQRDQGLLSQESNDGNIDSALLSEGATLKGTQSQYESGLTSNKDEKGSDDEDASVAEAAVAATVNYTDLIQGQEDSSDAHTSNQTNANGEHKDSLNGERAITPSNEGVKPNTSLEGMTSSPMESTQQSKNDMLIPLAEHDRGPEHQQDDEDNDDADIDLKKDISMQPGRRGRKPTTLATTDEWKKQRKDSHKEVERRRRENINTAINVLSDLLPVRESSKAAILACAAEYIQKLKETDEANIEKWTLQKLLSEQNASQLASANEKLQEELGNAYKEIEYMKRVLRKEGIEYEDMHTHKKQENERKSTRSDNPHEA
Strand	fluorescence intensity
CTATGGCAAGATGTACACGGGGAGCTCCTTCAATTC	490 a.u.
GAACTAAACAAAAGTGATCACATGAGTTCAAATTAG	4810 a.u.
GAAAGCCACCGTAAGCACGATGGTTTTATCCTCTAG	454 a.u.
CTAGCGCTTTATGTTCATATGATACCGTTTATATTC	561 a.u.
GAAGCAGAGGAGCGTCACCGGTAACCCTGAATATAG	476 a.u.
CTACAGAAAAGCTGACACGTTTCTCCCACTGTATTC	618 a.u.
GAAGTCGCCCAGTGTCATGTGCTTATCCCTTGATAG	1520 a.u.

Set 3 — technique: protein binding microarray; form: double-stranded DNA, one strand shown; matrix: in vitro; tested at: not given; reference: not given; reading: higher = stronger binding
Target: Histone acetyltransferase KAT6A, both winged helices, GST fusion (KAT6A, Homo sapiens, UniProt Q92794, residues 1-181)
Notes: 8-mer, flanks averaged, mean of 2 arrays, mostly near background
Residues (chain): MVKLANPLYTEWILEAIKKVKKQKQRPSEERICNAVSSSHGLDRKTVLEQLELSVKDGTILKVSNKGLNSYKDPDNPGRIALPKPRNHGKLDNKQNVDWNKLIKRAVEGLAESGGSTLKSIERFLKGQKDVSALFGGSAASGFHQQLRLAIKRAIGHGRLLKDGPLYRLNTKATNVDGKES
Strand	E-score
GTCCTAAA	0.0824
GGTCATAC	0.123
AGGTCAGG	-0.238
AAACGAGG	-0.112
GAGTGCAC	-0.147
AGGATTTG	-0.239

Further values, each from its own experiment
Molecule	target	assay	test system	conditions	scale	endpoint	result
PhoQ, residues 284 288 289 292 302 303 TGYLSA	PhoP, residues 12 14 15 18 19 IFFTR (Escherichia coli, UniProt P23836)	Sort-seq, refers to: YFP reporter	E. coli	PhoQ-PhoP variant library, added: 10 µM Mg2+	reference: high Mg2+ state, higher = stronger signaling	fold induction	0.162
